Measurements collected from several papers.
Every numbered part comes from another study and shows a few of its results, in no order.

Block 1
Target: Prothrombin, mature alpha-thrombin (F2, Homo sapiens, UniProt P00734)
Technique: aptamer microarray, sandwich
Molecule type: DNA with 2'F-ANA
Matrix: in vitro
Tested at: 200 nM
Notes: whole 15-mer aptamer, many near background
With: Cy3 exosite-II aptamer, 400 nM
Reading: higher = stronger binding
Oligonucleotide: GGTTGGTGTGGTTGG
| Modification | mean fluorescence intensity [a.u.] |
| --- | --- |
| 2'F-ANA at 3 6 7 9 10 11 12 13 | 474 |
| 2'F-ANA at 1 5 8 9 10 11 15 | 46.4 |
| 2'F-ANA at 1 2 4 5 12 15 | 99.4 |
| 2'F-ANA at 1 4 6 7 13 14 | 47.8 |
| 2'F-ANA at 4 5 8 9 11 14 15 | 65.3 |
| 2'F-ANA at 5 8 9 10 11 | 82.7 |
| 2'F-ANA at 1 2 3 4 6 9 10 11 13 15 | 58 |
| 2'F-ANA at 11 13 15 | 459 |

Block 2
Target: Centromere-binding protein 1, full length, His-tagged (CBF1, Saccharomyces cerevisiae, UniProt P17106, residues 1-351)
Sequence of UniProt P17106 (whole entry, looked up): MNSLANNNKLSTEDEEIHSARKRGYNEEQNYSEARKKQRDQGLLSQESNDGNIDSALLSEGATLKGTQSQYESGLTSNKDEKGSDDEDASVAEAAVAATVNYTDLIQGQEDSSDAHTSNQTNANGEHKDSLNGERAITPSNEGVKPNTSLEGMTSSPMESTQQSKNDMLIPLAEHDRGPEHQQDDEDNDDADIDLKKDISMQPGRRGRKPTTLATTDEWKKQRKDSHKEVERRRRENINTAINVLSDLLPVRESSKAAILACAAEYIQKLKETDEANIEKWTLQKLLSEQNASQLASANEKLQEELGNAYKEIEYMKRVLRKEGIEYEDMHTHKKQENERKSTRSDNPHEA
Technique: competition protein-binding microarray
Molecule type: double-stranded DNA, one strand shown
Matrix: in vitro
Tested at: 2 µM
Notes: whole 60-bp probe, lowest competitor level
With: Pho4 competitor, 0.05 µM
Reading: higher = stronger binding
| Oligonucleotide | fluorescence intensity [a.u.] |
| --- | --- |
| CGCTTCAGGACAGTACACGTGATCCAGCATAAGATGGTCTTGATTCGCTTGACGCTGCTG | 7970 |
| CGTCCTAGTGATTGTATTGTGGGTGCCATGAGGAAGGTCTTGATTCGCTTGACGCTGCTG | 99.5 |
| AAATTACTAAGTTTTCACGTGTAATACCCCGTATGAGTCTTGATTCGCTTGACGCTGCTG | 781 |
| AGATTCGAATTACCATCCGTGACGGACATCTTATTTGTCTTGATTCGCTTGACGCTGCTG | 75.2 |
| CATATCAGTGGTAGCAACGTGGTCGCACTGAAGAATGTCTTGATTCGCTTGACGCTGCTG | 102 |
| AAAGCGGTAATTTTGCACGTGTTTTCACATATCTATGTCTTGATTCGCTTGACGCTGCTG | 2460 |
| GCCGCTGCACAATCTGGCGTGCCAGTAAAGCAATATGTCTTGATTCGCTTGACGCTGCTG | 99.5 |
| CTTTCCCGATCTTGTCACTAAACTTTAGCACATTTGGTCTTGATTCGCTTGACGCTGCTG | 74.5 |

Block 3
Target: Sal-like protein 4, full length isoform A (SALL4, Homo sapiens, UniProt Q9UJQ4, residues 1-1053)
Sequence of UniProt Q9UJQ4 (whole entry, looked up): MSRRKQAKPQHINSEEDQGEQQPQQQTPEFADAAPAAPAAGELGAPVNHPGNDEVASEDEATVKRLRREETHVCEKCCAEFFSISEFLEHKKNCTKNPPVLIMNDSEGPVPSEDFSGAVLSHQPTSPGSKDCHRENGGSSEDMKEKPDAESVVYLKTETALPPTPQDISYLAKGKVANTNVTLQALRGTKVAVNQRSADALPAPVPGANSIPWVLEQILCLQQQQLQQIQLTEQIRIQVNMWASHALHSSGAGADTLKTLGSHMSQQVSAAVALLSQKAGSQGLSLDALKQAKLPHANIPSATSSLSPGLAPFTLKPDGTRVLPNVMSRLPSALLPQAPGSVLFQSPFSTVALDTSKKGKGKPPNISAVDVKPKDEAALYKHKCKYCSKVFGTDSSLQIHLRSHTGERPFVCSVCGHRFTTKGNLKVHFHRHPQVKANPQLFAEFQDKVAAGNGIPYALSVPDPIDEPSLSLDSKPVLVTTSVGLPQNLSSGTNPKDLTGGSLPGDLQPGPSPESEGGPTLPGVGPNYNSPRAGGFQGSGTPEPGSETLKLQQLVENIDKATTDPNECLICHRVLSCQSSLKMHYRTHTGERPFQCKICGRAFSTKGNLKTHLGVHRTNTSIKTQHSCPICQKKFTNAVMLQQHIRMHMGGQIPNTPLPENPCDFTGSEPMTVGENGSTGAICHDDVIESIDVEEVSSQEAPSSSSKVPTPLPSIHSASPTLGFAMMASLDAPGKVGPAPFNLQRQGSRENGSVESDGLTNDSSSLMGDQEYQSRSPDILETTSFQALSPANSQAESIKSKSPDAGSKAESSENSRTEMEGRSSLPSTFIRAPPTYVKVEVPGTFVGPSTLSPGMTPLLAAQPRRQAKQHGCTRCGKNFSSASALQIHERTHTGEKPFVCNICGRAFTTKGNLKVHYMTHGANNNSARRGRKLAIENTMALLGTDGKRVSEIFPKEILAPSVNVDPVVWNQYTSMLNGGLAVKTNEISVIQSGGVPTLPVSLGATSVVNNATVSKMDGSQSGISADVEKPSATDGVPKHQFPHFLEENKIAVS
Technique: universal PBM
Molecule type: double-stranded DNA, one strand shown
Matrix: in vitro
Tested at: 600 nM
Notes: 8-mer, flanks averaged, mean of replicates
Reading: higher = stronger binding
| Oligonucleotide | E-score |
| --- | --- |
| CGGTGTTA | -0.0585 |
| CACGAGCC | -0.242 |
| ATTTAAAA | 0.333 |
| ATTCACCG | -0.0244 |
| CAGGGCAG | -0.236 |
| AAGTAAGC | 0.114 |

Further values, each from its own experiment
| Molecule | target | assay | system | conditions | scale | endpoint | result |
| --- | --- | --- | --- | --- | --- | --- | --- |
| PhoQ, residues 284 288 289 292 302 303 ALSMDL | PhoP, residues 12 14 15 18 19 LYHSL (Escherichia coli, UniProt P23836) | Sort-seq, measured: YFP reporter | E. coli | PhoQ-PhoP variant library, with: 10 µM Mg2+ | relative to: high Mg2+ state, higher = stronger signaling | fold induction | 3.04 |

Excerpt of the above (block 2):
| Oligonucleotide | fluorescence intensity [a.u.] |
| --- | --- |
| CGCTTCAGGACAGTACACGTGATCCAGCATAAGATGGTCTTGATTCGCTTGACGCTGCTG | 7970 |
| CGTCCTAGTGATTGTATTGTGGGTGCCATGAGGAAGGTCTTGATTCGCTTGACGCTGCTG | 99.5 |
| AAATTACTAAGTTTTCACGTGTAATACCCCGTATGAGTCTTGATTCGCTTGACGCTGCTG | 781 |
